# Measured values collected from several papers.
# Parts stem from different laboratories: compare values within a part only. Positions count from the first letter of the parent shown.

# Block 1 — method: aptamer microarray, sandwich; form: DNA with 2'F-ANA; matrix: in vitro; tested at: 200 nM; with: Cy3 exosite-II aptamer, 400 nM; direction: higher = stronger binding; oligonucleotide: GGTTGGTGTGGTTGG
# Target: Prothrombin, mature alpha-thrombin (F2, Homo sapiens, UniProt P00734)
# Setting: whole 15-mer aptamer, many near background
Modification,mean fluorescence intensity [a.u.]
2'F-ANA at 1 3 4 5 6 7 10 11 14,55.8
2'F-ANA at 5 7 8 9 10 12,74.7
2'F-ANA at 3 4 5 6 7 10 12 13 14,48.2
2'F-ANA at 2 3 4 5 6 9 11 14,45.4
2'F-ANA at 5 6 8 10 15,56.3
2'F-ANA at 1 3 4 5 11 14 15,47.4
2'F-ANA at 1 2 4 5 9 11 12 14,47
2'F-ANA at 3 7 11 12,1280
2'F-ANA at 4 10 11 13,69.8
2'F-ANA at 1 2 4 5 7 8 10 12 14 15,50
2'F-ANA at 2 3 4 5 8 9 11 12 13 14,82.6
2'F-ANA at 2 3 5 6 7 8 10 11 12 14 15,51.2
2'F-ANA at 1 4 6 8 12,367
2'F-ANA at 1 2 6 10 12,66.4
2'F-ANA at 1 5 8 9 12 15,119
2'F-ANA at 1 2 5 11 12 13 14 15,51
2'F-ANA at 1 3 4 9 10 11 15,67.4
2'F-ANA at 1 2 5 6 7 11 12 14 15,118
2'F-ANA at 1 2 3 5 6 7 8 9 10 12 13 14 15,52.3
2'F-ANA at 2 3 8 9 10 12 13,401
2'F-ANA at 3 4 7 8 9 10 13 15,230
2'F-ANA at 4 5 8 9 11 13 14,43.2
2'F-ANA at 2 3 4 5 8 10 11 14 15,48.7
2'F-ANA at 4 5 7 9 11 12 14 15,59.5
2'F-ANA at 1 2 6 9 10 12 13 14,81.5

# Block 2 — method: RNA Bind-n-Seq; form: RNA; matrix: in vitro; tested at: 200 nM; setting: whole 134-nt RNA, ends assumed; with: 150 mM LiCl; relative to: input library; direction: higher = stronger binding; library: 7-deaza-guanosine replaces G
# Target: Ras GTPase-activating protein-binding protein 1, full length (G3BP1, Homo sapiens, UniProt Q13283)
# UniProt Q13283, sequence (whole entry, looked up): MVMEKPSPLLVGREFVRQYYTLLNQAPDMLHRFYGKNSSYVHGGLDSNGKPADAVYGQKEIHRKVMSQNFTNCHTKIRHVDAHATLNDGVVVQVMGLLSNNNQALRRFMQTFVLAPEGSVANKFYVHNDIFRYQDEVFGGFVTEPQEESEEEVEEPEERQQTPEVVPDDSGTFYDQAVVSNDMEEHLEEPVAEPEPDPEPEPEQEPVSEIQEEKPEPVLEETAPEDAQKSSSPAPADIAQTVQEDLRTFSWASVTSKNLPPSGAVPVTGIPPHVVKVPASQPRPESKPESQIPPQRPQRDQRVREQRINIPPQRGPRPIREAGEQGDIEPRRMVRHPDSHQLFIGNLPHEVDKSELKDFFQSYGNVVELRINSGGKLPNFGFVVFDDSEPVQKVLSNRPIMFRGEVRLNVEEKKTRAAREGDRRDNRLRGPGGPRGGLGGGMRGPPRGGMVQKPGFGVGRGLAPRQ
# Constant ends, left off below: GGGAGUUCUACAGUCCGACGAUC … UGGAAUUCUCGGGUGUCAAGG
Oligonucleotide,log2 enrichment
UAACUUUAGAGGAGGAUCUGAUGGAUAUGGCAGUGGACGUGGAUUUGGGGAUGGCUAUAAUGGGUAUGGAGGAGGACCUGGAGGUGUCAA,-0.354
UCCUCAAGUCCUGUGCUACACAUCGUAUGUACCGAAUCGGGUGGUGGUGGGAAAGUAUUAUGUUACGCCGUUCGGAUCUGCACUUCCAGC,0.228
UCAAGUCCUGUGCUACACAUCGUAUGUACCGAAUCGGGAAAGGGAAAGGGAGGGAAAGUAUUAUGUUACGCCGUUCGGAUCUGCACUUCC,-0.0741
AGUCCUGUGCUACACAUCGUAUGUACCGAAUCGGGAAAGGGAAAGGGUUUUUUUGGGAAAGUAUUAUGUUACGCCGUUCGGAUCUGCACU,-1.14
CACAGACAACACGCACCCACAAAAACACAGAGGGAAGGGGUUGGGAUGGGGACAGGGUGCACAGCAGGGCGGGGUAGGACCCCAGCCCCU,-0.394
AGUCCUGUGCUACACAUCGUAUGUACCGAAUCAAAUUUUUAAAUUUAAAUUUUUAAAAAAGUAUUAUGUUACGCCGUUCGGAUCUGCACU,-2.73
UGGAUAUGGUUAUAGAAGAAGUGGCCGAGAUAAAUAUGGCCCUCCUACUCGCACAGAGUACAGACUUAUUGUGGAGAAUUUGUCAAGUCG,-1.59
UAACUUUAGAGGAGGAUCUGAUGGAUAUGGCAGUGGACGUGGAUUUGGGGCUGGCUAUAAUGGGUAUGGAGGAGGACCUGGAGGUGGCAA,0.0422
CUCAAGUCCUGUGCUACACAUCGUAUGUACCGAAUCGGGUGGGGUGGGGUGGGAAAGUAUUAUGUUACGCCGUUCGGAUCUGCACUUCCA,-0.78
CUGUGCUACACAUCGUAUGUACCGAAUCGGUUUUUUUGGGGUUUUUUUGGGUUUUUUUGGGAAAGUAUUAUGUUACGCCGUUCGGAUCUG,1.2
AAGUCCUGUGCUACACAUCGUAUGUACCGAAUCGGAAAAAAAGGUUUUUGGAAAGGAAAGUAUUAUGUUACGCCGUUCGGAUCUGCACUU,-2.24

# Block 3 — target: CCND3, cyclin fold, Cln2 fusion (human); method: yeast growth competition, sequencing; matrix: yeast; setting: weak parent motif; relative to: not given; direction: higher = stronger binding
# Starting sequence: MASTL docking peptide (human); PMIAKNLMCELDE; partner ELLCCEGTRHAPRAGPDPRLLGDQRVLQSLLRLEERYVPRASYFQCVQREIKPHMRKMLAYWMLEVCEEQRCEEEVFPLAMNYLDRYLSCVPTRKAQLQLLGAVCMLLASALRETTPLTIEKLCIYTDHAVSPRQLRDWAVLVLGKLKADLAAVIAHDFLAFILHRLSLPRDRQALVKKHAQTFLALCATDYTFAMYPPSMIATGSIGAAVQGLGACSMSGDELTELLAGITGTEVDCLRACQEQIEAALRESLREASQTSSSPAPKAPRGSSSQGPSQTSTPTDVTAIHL
Substitution,normalised enrichment score
PMIAKNLMDELDE [C9D],-0.232
PMIQKNLMCELDE [A4Q],-0.251
PMIAKMLMCELDE [N6M],0.0964
PMIAKNLMMELDE [C9M],-0.0975
PMIAKNPMCELDE [L7P],0.0412
PMIAKNLMNELDE [C9N],-0.251
PMIAKNLMCEHDE [L11H],0.0151
PMIAKNGMCELDE [L7G],-0.622
PMIAKNLMCALDE [E10A],-0.179
PMIAKSLMCELDE [N6S],-0.0415
PMILKNLMCELDE [A4L],0.0735
PWIAKNLMCELDE [M2W],-0.00328
PMKAKNLMCELDE [I3K],0.133
PMIAKNMMCELDE [L7M],-0.354
PMIAMNLMCELDE [K5M],-0.226
PMIAKPLMCELDE [N6P],-0.043

# Block 4 — method: RNA Bind-n-Seq; form: RNA; matrix: in vitro; tested at: not given; relative to: input RNA pool; direction: higher = stronger binding
# Target: RING finger protein unkempt homolog, zinc fingers 1-6, GST-SBP tag (UNK, Homo sapiens, UniProt Q9C0B0, residues 30-357)
# UniProt Q9C0B0, sequence (30-357, looked up): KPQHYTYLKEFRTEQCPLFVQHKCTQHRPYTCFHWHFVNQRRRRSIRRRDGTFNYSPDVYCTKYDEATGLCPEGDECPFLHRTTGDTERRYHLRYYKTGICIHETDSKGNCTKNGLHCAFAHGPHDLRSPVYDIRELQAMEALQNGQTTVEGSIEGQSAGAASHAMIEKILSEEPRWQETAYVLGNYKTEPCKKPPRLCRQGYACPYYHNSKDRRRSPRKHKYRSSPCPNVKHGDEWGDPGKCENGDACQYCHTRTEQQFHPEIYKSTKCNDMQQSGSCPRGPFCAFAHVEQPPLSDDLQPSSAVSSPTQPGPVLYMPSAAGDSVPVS
# Setting: RNA with constant flanks, human and mouse sites, ends assumed
# Constant ends, left off below: GGGAGUUCUACAGUCCGACGAUC … CAACAGAGGAUUGAGCAUCA
Oligonucleotide,bound/input enrichment [ratio]
GGCUCUUGCCCUUUUCAGGAUAUGAGACUAGACUCUGCCGUGCCUCCUUUUAAUAUCUCAUUAAAAAGCAUUUGUCAAUUUCUCUGCCUCCCAGCCGACAACACAAAAUUAUUUUCCAAC,0.489
UACCAGAGGAUGUACUAUGUGUUCAUAUCCAUGCUGUCCAGUGGGCCUGCCUGGCUGGGUAUCAUACUGCUUGUCACGGUCGGCCUCCUCCCUGACGUCCUCAAGAAGGUCCUGUGUAGG,0.123
AAGGUCUUUAAUGUUGCCAUCCCCCGAUUCCACAUGGCAUGUCCAACAUUCAGGGUGUCUAUAGCUCGAUUGGAAAUGGGUCCUGAUGAAUAUGAAGAGAUGGAGGAGGAAGCUGAGGAG,0.142
UGAUUUUUACUGAUAAAUUCACAGGAGGAACUUUGUAGUCAAAAGUUCUGUGGCUACUGUUUUGCUUUGUUCUUUUUUGGCUUUUUUCUGUUUUGUUUUGUUUUUUGUUGUUUUUUUUUU,0.798
ACUGUCCAGGAGGUUCACCCAGGAGAACCUCCGUUCGACUUGGAGCUGUUCUACGUUAAGUAUAGAAAUUUUUCCUACUUACAUUGUAAAUGGGCCACAAUGGAAGAGCUCGAAAAGGAU,0.342
AAAAUUGGUAUCGUUGGAUUGCCAAAUGUUGGGAAGUCUACCUUCUUCAAUGUAUUAACCAAUAGUCAGGCUUCAGCAGAAAACUUCCCAUUCUGCACUAUUGAUCCUAAUGAGAGCAGA,0.217
CCAUAAGUACAGUUGAUCAAAGUCAUAGUAGGUAAAUGCUUUAUGGGACAGCUGACACCUUUUAGACCCUACCAGGUAUUGCUAGCAUGUGAGCUGCAGUUGUGGGGUCUGAGAUAUUUC,0.174
CCUGCGCCGCCUCCUCCCACCCUGAGCAGAGCCGCCGAGGAUGAUAAACACCCAGGACAGUAGUAUUUUGCCUUUGAGUAACUGUCCCCAGCUCCAGUGCUGCAGGCACAUUGUUCCAGG,0.312
CCACUUCCAGGACCUCACUCCCUCUUGCCAGGAAGAGCUAUCCCCAACAACAGAUUUCCCUUCAGACCCGGCAGGGGUAGGUCAGCUGACAGCCGGCUGCCAUUCCUGUGACCAAUUUGG,0.11
AUUGAACAGCACUAUUUUGAAGAUCGUGGUAAAGGCAGGCUGUCAUAGAGUUAUGUGUUAGUCUCAGGAGUCUUAACUUUUGAAAUAUGUUUUACUUGAAUGUUACAUUAGAUAUUGGUG,15
GGAGGGAUCGUCCUUGUCUUGGGUGUGCAGGCUGUAAUUUUCUUUCUCUAUAAGUUCUGCAAAUCUAAAGAACGAAAUUACCAUACUCUGUAAACAGACCUGUUAAAUUAAUGUGGACUG,0.216

# Further values, each from its own experiment
Substance,target,assay,test system,setting,scale,endpoint,value
"PhoQ, residues 284 288 289 292 302 303 TNSAEL","PhoP, residues 12 14 15 18 19 IQFRS (Escherichia coli, UniProt P23836)","Sort-seq, measured: YFP reporter",E. coli,"PhoQ-PhoP variant library, with: 10 µM Mg2+","relative to: high Mg2+ state, higher = stronger signaling",fold induction,4.32

# Repeated from above (block 3):
Substitution,normalised enrichment score
PMIAKNPMCELDE [L7P],0.0412
PMIAKNLMNELDE [C9N],-0.251
PMIAKNLMCEHDE [L11H],0.0151
PMIAKNGMCELDE [L7G],-0.622
PMIAKNLMCALDE [E10A],-0.179
PMIAKSLMCELDE [N6S],-0.0415
PMILKNLMCELDE [A4L],0.0735
PWIAKNLMCELDE [M2W],-0.00328
PMKAKNLMCELDE [I3K],0.133
PMIAKNMMCELDE [L7M],-0.354
